Assay results pooled from the literature.
Each numbered part is a random draw from the data of one study; scales do not carry over between parts. Values joined by “and” are separate records of one study, mostly repeats; a detail may differ.

Series 1 — observed: enzyme activity; mode: inhibitor; tested at: 0.5 µM; reference: control
Target: Maternal embryonic leucine zipper kinase (MELK, Homo sapiens, UniProt Q14680)
Sequence of UniProt Q14680 (whole entry, looked up): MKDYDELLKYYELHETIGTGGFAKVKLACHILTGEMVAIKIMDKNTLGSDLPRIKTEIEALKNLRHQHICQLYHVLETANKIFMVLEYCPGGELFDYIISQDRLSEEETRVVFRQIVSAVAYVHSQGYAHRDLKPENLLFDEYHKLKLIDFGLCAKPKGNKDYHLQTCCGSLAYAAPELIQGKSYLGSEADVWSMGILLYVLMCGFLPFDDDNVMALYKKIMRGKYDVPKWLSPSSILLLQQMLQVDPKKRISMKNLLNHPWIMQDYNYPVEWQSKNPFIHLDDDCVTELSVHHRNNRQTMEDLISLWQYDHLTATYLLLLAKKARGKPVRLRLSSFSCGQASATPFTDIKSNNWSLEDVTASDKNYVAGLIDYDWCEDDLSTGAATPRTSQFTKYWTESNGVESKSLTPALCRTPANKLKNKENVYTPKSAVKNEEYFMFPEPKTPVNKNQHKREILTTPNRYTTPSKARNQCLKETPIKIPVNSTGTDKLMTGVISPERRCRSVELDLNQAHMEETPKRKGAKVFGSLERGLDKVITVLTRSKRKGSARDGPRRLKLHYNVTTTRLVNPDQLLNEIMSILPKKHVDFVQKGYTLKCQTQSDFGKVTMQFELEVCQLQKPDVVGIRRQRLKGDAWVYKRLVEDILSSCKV
| Structure (SMILES) | remaining activity |
| --- | --- |
| CCCCc1c(-c2ccc(O)cc2)[nH]c2nccnc12 | 82.5% |
| Nc1nc(Nc2ccc(S(N)(=O)=O)cc2)nn1C(=S)Nc1c(F)cccc1F | 32.7% |
| CC(C)N(CCC(=O)c1ccc2ccccc2c1)Cc1ccccc1 | 99.4% |
| O=C1NC(=O)/C(=C/c2ccc3c(c2)OC(F)(F)O3)S1 | 94.4% |
| O=c1c(-c2ccc(F)cc2)c(-c2ccncc2)[nH]n1-c1ccc(Cl)cc1 | 86.5% |
| O=C(c1ccccc1)c1ccc(N2CCOCC2)cc1O | 103% |
| O=C1c2ccccc2-c2nc3nnnn3nc21 | 55.7% |
| c1cc(-c2cnn3cc(-c4ccc(OCCN5CCCCC5)cc4)cnc23)ccn1 | 6.63% |
| N#C/C(=C(/N)SC1C=CC=CC1)c1cccc(C(O)c2ccncc2)c1 (centres unmarked) | 97% |
| CNc1cc2c(Nc3cccc(Br)c3)ncnc2cn1 | 91.6% |

Series 2 — cell line: normal-adjacent organoid sample E; method: CellTiter-Glo; tested at: 1 µM; notes: replicate mean; reference: DMSO
| SMILES | viability |
| --- | --- |
| C[C@H](c1cccc(C#N)c1)n1cc(Cl)cc(C(N)=O)c1=N | 115% |
| CN(C)[C@H]1CCN(c2cc(-c3ccccc3)nc3ccnn23)C1 | 124% |
| CC(C)(O)c1cncc(-c2nc3ccc(F)cc3n2C2CC2)c1 | 105% |
| Cc1noc([C@H]2C[C@@H](c3ccc(C(F)(F)F)cc3)CN(C(=O)N3CCS(=O)(=O)C3)C2)n1 | 113% |
| Cn1cncc1[C@@](O)(COc1ccc(C#N)cc1-c1ccc(OC(F)(F)F)cc1)c1ccc(C#N)cc1 | 86.5% |
| Cc1cn(-c2cc(NC(=O)c3ccc4c(c3)CN(c3cncnc3)C[C@@H]4C)cc(C(F)(F)F)c2)cn1 | 160% |
| Cn1cnc2c(F)c(Nc3ccc(Br)cc3Cl)c(C(=O)NOCCO)cc21 | 82.2% |
| Nc1nc(NCc2ccccc2)nc(-c2ccccc2CO)n1 | 128% |
| CN1CCN(c2cnc3c(C4CCN(C(=O)c5ccc(OC(F)(F)F)cc5N)CC4)ncnc3c2)CC1 | 96.3% |
| O=C1c2ccc(Nc3ccc(F)cc3F)cc2CCc2ccc(OC[C@H](O)CO)cc21 | 131% |
| CC1=C(C#N)C(c2ccc3c(c2)c(NC(=O)c2ccccc2C)nn3C)C(C#N)=C(C)N1 | 110% |
| NS(=O)(=O)c1cc(NC(=O)Cc2ccccc2)ccc1Oc1cccc(Cl)c1 | 119% |
| CCCCN(Cc1ccccc1)C(=O)c1ccc(S(=O)(=O)Nc2ccccc2)cc1 | 173% |
| CN1CCN(C(=O)C(C)(C)c2ccc(C(=O)Nc3cn4cc(-c5cc(C(C)(C)C)cc(C(C)(C)C)c5)ccc4n3)cc2)CC1 | 132% |

Series 3 — SMILES: CCOc1ccc(Nc2c3c(nc4ccccc24)CCC3)cc1; organism: Leishmania donovani; method: cidal or static mode; strain: DD8; matrix: promastigotes; tested at: concentration not given
| setting | promastigote count |
| --- | --- |
| 48 h | 4.24e+06 and 4.35e+06 |
| 24 h | 1.26e+06 and 1.27e+06 |
| 72 h | 9.86e+06 and 9.76e+06 |

Series 4 — method: TR-FRET
Target: UBC/CDC34 (Homo sapiens, UniProt P0CG48+P49427)
Sequence of UniProt P49427 (whole entry, looked up): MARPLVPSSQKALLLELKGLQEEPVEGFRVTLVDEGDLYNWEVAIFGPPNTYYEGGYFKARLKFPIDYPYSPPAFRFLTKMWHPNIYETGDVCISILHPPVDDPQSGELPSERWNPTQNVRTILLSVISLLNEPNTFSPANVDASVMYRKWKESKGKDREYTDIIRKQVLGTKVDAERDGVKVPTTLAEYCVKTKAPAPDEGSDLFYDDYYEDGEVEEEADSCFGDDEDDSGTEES
| Compound | EC50 [µM] |
| --- | --- |
| COCC(=O)N1CCC(Cc2ccc(-c3cc(Cl)cc(Cl)c3)cc2)(C(=O)NCCO)CC1 | > 100 |
| COCC(=O)N1CCC(Cc2ccc(-c3cc(Cl)cc(Cl)c3)cc2)(C(N)=O)CC1 | > 100 |
| Cc1nnc(C2(Cc3ccc(-c4cc(Cl)cc(Cl)c4)cc3)CCN(C(=O)COc3ccccc3)CC2)o1 | > 100 |
| CCOC(=O)C1(Cc2ccc(-c3cc(Cl)cc(Cl)c3)cc2)CCN(C(=O)c2ccno2)CC1 | > 100 |
| COCC(=O)N1CCC(Cc2ccc(-c3cc(Cl)cc(Cl)c3)cc2)(C(=O)NC[C@@H](C)O)CC1 | > 100 |
| CCOC(=O)C1(Cc2ccc(-c3cc(Cl)cc(Cl)c3)cc2)CCN(C(=O)CNC)CC1 | 6.3 |
| CC(C)(C)OC(=O)N1CCC(Cc2ccc(-c3cc(Cl)cc(Cl)c3)cc2)(C(=O)O)CC1 | > 100 |
| COCC(=O)N1CCC(Cc2ccc(-c3cc(Cl)cc(Cl)c3)cc2)(C(=O)O)CC1 | > 100 |

Some of these lines once more (series 2):
| SMILES | viability |
| --- | --- |
| Nc1nc(NCc2ccccc2)nc(-c2ccccc2CO)n1 | 128% |
| C[C@H](c1cccc(C#N)c1)n1cc(Cl)cc(C(N)=O)c1=N | 115% |
| Cn1cncc1[C@@](O)(COc1ccc(C#N)cc1-c1ccc(OC(F)(F)F)cc1)c1ccc(C#N)cc1 | 86.5% |
